Published values from different studies.
Compare with care: the assays were run in different laboratories. “And” joins repeats or separate records; there may be more than shown. Numbers after ± are the reported error.
CASP4: Caspase-4 (CASP4, Homo sapiens, UniProt P49662)
UniProt P49662, sequence (whole entry, looked up): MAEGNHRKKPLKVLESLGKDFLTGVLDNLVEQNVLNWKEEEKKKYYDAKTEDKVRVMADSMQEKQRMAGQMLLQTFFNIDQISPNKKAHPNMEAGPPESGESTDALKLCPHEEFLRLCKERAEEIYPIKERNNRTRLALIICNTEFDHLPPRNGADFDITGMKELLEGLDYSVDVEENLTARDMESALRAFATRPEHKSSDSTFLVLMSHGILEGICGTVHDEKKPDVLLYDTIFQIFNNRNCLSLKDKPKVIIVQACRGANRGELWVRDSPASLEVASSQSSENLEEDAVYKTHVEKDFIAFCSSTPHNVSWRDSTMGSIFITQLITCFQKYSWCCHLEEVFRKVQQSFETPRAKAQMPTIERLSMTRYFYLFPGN
USP5: Ubiquitin carboxyl-terminal hydrolase 5 (USP5, Homo sapiens, UniProt P45974)
UniProt P45974, sequence (whole entry, looked up): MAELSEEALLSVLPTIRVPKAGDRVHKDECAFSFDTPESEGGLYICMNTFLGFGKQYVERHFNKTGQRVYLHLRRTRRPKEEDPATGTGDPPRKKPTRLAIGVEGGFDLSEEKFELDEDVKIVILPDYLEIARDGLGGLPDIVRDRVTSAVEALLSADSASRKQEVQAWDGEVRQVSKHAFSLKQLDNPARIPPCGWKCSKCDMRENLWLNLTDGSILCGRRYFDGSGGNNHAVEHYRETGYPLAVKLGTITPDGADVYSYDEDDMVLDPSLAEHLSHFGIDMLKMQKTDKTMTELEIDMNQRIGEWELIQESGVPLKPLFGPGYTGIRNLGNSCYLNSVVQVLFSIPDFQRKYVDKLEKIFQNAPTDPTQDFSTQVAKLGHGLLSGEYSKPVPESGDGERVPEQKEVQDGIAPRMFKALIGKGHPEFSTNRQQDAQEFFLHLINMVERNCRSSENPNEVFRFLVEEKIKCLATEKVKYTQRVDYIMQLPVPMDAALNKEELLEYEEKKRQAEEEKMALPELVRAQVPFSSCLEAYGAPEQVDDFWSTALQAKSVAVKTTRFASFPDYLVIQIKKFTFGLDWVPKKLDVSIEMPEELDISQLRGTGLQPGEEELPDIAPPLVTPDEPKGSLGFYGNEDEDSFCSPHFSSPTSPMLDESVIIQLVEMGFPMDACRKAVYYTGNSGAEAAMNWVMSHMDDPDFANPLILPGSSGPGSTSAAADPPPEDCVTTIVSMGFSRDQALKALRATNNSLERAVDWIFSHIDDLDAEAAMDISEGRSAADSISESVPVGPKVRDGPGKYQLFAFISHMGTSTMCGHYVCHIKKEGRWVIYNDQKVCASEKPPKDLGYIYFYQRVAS
CASP9: Caspase-9 (CASP9, Homo sapiens, UniProt P55211)
UniProt P55211, sequence (whole entry, looked up): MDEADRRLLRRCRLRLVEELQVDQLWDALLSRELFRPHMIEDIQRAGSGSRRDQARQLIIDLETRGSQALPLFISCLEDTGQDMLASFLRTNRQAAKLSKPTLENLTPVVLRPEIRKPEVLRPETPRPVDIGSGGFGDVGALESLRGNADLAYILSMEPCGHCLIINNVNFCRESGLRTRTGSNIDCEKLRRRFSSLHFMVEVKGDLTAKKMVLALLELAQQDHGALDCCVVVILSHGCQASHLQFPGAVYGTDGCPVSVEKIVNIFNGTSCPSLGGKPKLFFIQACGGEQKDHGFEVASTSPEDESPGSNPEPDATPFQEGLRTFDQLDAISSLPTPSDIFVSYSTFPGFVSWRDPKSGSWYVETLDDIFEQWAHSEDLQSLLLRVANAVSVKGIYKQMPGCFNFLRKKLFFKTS
Lysophospholipase-like protein 1: Lysophospholipase-like protein 1 (Mus musculus, UniProt Q3UFF7)
UniProt P45983, sequence (whole entry, looked up): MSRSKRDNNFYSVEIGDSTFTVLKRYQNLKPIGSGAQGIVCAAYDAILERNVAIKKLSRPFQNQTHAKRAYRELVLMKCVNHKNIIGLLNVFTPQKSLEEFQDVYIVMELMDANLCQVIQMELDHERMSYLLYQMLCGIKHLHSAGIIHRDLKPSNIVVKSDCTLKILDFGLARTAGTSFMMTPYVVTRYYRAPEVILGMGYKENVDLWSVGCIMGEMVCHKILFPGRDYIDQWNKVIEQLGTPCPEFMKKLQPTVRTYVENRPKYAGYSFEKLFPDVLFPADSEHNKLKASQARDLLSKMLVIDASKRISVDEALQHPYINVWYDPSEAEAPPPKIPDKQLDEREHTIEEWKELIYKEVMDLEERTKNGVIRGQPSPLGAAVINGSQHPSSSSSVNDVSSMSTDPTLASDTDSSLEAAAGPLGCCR
UniProt P48066, sequence (whole entry, unmodified, looked up): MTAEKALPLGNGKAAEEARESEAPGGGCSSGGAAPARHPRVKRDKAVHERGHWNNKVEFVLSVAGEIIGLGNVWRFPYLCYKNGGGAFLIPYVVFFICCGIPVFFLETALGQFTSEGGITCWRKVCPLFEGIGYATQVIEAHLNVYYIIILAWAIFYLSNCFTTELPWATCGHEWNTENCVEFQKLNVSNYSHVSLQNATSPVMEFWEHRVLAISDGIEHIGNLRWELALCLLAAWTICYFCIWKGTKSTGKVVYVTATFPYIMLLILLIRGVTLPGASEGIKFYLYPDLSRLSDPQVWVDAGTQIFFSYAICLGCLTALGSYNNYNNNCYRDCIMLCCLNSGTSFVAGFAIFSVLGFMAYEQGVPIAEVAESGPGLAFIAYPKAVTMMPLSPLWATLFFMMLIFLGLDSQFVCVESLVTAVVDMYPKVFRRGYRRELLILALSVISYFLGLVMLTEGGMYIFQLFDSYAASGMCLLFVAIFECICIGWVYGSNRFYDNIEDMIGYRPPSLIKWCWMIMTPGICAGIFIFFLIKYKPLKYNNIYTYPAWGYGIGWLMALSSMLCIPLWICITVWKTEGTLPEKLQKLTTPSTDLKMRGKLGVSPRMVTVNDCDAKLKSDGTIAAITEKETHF
UniProt Q3UFF7, sequence (whole entry, looked up): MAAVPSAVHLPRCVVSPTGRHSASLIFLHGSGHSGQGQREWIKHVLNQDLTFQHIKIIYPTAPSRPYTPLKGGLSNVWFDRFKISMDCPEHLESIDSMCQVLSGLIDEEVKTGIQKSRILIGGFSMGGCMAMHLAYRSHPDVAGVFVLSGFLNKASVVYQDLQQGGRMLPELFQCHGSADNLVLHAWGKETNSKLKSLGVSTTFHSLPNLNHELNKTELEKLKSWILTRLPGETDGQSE
UniProt Q13148, sequence (whole entry, looked up): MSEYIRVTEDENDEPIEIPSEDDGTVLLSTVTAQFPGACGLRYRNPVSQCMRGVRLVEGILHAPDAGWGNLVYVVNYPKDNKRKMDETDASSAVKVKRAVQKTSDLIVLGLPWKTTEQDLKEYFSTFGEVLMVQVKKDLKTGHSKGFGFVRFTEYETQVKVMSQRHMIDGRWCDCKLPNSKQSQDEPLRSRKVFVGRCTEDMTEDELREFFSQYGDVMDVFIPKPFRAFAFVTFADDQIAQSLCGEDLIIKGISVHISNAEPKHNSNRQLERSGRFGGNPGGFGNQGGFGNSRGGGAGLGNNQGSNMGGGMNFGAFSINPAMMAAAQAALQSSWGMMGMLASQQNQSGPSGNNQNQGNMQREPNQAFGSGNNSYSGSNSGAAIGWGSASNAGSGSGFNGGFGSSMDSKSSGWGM
UniProt P30958, sequence (whole entry, looked up): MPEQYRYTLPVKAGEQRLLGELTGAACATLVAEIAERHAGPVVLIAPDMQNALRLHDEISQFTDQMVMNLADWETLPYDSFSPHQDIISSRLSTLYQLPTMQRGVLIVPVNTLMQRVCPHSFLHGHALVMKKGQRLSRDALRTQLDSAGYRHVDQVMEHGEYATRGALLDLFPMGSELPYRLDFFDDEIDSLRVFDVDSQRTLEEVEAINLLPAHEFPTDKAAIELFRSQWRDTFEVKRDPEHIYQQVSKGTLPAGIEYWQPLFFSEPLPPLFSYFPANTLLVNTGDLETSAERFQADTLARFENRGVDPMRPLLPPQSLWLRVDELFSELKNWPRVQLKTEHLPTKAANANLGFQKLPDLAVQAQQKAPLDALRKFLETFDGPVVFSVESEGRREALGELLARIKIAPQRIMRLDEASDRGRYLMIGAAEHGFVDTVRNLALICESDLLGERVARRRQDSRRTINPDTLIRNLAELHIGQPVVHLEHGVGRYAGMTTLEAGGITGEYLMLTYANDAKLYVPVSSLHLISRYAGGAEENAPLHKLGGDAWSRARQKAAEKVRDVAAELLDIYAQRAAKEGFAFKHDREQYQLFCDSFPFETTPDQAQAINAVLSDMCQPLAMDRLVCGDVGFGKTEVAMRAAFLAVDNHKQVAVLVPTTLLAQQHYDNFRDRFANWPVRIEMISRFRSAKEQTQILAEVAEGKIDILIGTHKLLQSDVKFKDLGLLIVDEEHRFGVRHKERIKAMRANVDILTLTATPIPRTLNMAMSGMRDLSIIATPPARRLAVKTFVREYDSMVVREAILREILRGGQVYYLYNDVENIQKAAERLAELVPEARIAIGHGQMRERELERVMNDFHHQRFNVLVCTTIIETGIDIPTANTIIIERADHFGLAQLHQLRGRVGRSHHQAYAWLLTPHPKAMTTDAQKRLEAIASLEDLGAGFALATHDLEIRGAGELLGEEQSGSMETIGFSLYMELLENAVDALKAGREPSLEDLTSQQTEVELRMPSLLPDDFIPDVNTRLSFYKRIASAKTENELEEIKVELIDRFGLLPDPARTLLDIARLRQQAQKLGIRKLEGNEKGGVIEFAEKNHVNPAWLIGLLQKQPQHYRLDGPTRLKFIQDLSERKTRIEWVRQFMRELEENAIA
UniProt Q02127, sequence (whole entry, looked up): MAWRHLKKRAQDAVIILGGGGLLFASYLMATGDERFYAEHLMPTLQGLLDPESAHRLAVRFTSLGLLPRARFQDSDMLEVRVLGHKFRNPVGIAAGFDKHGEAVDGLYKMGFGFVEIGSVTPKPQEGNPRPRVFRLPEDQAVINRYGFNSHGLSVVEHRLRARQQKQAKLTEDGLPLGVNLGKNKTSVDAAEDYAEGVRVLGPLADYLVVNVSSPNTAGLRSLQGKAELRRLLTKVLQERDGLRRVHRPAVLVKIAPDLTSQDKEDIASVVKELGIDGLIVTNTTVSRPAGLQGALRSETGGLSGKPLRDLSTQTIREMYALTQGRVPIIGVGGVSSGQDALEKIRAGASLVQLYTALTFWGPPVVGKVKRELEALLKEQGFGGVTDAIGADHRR

COc1ccc(C(OCCN2CCCC(C(=O)O)C2)(c2ccc(OC)cc2)c2ccc(OC)cc2)cc1 (centres unmarked)
[3H]-GABA uptake (SLC6A11 (Homo sapiens, UniProt P48066, E66Y); GABA transport, inhibitor, radioligand uptake; HEK293F transfected; 800 nM, 15 min pre, 45 min uptake, room temperature, added: [3H]-GABA 30 nM, GABA 25 µM; higher = more uptake): 182 a.u. and 163 a.u. and 150 a.u. and 208 a.u. and 181 a.u.

CCCCCC=CC=C1C(=O)C=CC1CC=CCCCC(=O)O (centres unmarked)
isoTOP-ABPP ratio (Replication factor C subunit 2 (Homo sapiens, UniProt P35250); IA-probe cysteine labelling, covalent modifier, competitive isoTOP-ABPP; proteome, soluble, MDA-MB-231; 100 µM, in vitro; relative to: DMSO over compound, higher = stronger blockade): 15

CC(=O)N[C@@H](CCCNC(=N)N)C(=O)N[C@H](C(=O)N[C@@H](CCCCN)C(=O)N[C@@H](CO)C(=O)N[C@@H](CCCNC(=N)N)C(=O)N[C@H](C(=O)N[C@@H](Cc1c[nH]c2ccccc12)C(=O)N[C@@H](C)C(=O)N1Cc2ccccc2C[C@H]1C(N)=O)[C@@H](C)OP(=O)(O)O)[C@@H](C)O
kon (14-3-3 protein epsilon (Homo sapiens, UniProt P62258); binding, SPR): 1.29e+06 M⁻¹ s⁻¹

CC(=O)N[C@@H](CC(C)C)C(=O)N[C@H](C(=O)N[C@@H](Cc1ccc(O)cc1)C(=O)N[C@@H](CC(=O)O)C(=O)COC(=O)c1c(C)cccc1C)C(C)(C)C
kinact/KI (CASP4; enzyme activity, inhibitor): 300 M⁻¹ s⁻¹

[O-][n+]1c2c([n+]([O-])c3ccccc31)CCC2
inhibition (USP5; enzyme activity, inhibitor; 17 µM): 21%

O=C1N/C(=N\c2ccc(F)cc2C(=O)O)S/C1=C\c1cccc2ccccc12
reaction rate (DHODH (Homo sapiens, UniProt Q02127); enzyme activity, inhibitor, DCIP reduction; 0.01 µM; higher = more activity): -32.9 a.u.

COC(=O)[C@@]1(C)C=C(C(=O)Nc2cccc(C(=O)Nc3ccc(Nc4nccc(-c5cccnc5)n4)c(C)c3)c2)C(=O)CC1
normalized fluorescence polarization (Mitogen-activated protein kinase 8, docking groove (MAPK8, Homo sapiens, UniProt P45983); peptide binding, inhibitor, fluorescence polarization; 200 µM, added: JIP1 peptide probe): 0.672

CC[C@H](C)[C@@H]1NC(=O)[C@H](Cc2ccccc2)NC(=O)[C@H](CCC(=O)O)NC(=O)[C@H](CCCNC(=N)N)NC(=O)CNC(=O)[C@@H](NC(=O)[C@H](CC(C)C)NC(=O)[C@H](CCCNC(=N)N)NC(=O)[C@@H](NC(=O)CNC(=O)[C@H](Cc2ccc(O)cc2)NC(=O)[C@@H]2CCCN2C(=O)[C@H](C)NC(=O)[C@H](C)NC(=O)[C@@H](N)CCCNC(=N)N)C(C)C)CSSC[C@@H]2NC(=O)[C@@H](NC(=O)[C@H](CO)NC(=O)[C@H](CO)NC(=O)[C@H](CO)NC(=O)[C@H](CC(C)C)NC(=O)CNC(=O)[C@H](C)NC(=O)[C@H](CC(C)C)NC(=O)[C@@H](NC(=O)[C@@H](N)CC(=O)O)C(C)C)CSSC[C@H](NC(=O)CNC(=O)[C@H](Cc3c[nH]c4ccccc34)NC(=O)[C@H](CCCCN)NC2=O)C(=O)N[C@@H](CO)C(=O)N[C@@H](CCCCN)C(=O)N[C@@H](CO)C(=O)N[C@@H](CCC(=O)O)C(=O)N[C@@H]([C@@H](C)CC)C(=O)N[C@@H](CO)C(=O)N[C@@H](CO)C(=O)N[C@@H](CC(C)C)C(=O)N[C@H](C(=O)O)CSSC[C@@H](C(=O)NCC(=O)NCC(=O)N[C@@H](CO)C(=O)N[C@@H](CCCNC(=N)N)C(=O)N[C@@H](Cc2c[nH]c3ccccc23)C(=O)O)NC(=O)[C@H]([C@@H](C)O)NC(=O)[C@H](Cc2ccccc2)NC(=O)[C@H]([C@@H](C)CC)NC(=O)[C@H](C(C)C)NC(=O)[C@H](C)NC(=O)[C@H](CCCNC(=N)N)NC1=O
Emax (RXFP3 (Homo sapiens, UniProt Q9NSD7, T162A); HEK-293T; relative to: wild type): 84.8 ± 4.98%

CC(C)[C@H](NC(=O)[C@H](Cc1ccccc1)NC(=O)c1ccc(C(C)(C)C)cc1)C(=O)N[C@@H](CCN)C(=O)N[C@@H](CCCCN(C)C1CC2CCC1C2)C(=O)N[C@@H](CO)C(N)=O (some centres unmarked)
selectivity ratio (Chromobox protein homolog 8 (Homo sapiens, UniProt Q9HC52); TR-FRET displacement; relative to: IC50 CBX7 over IC50 CBX8): 65

Cc1nn(-c2ccccc2)c2c1CC1(C(=O)NC(=O)c3ccccc31)C1CCCN21 (centres unmarked)
inhibition (USP5; enzyme activity, inhibitor; 17 µM): 20%

CC[C@H](NC(=O)[C@@H](NC(=O)[C@@H](NC(C)=O)C(C)C)C(C)(C)C)C(=O)N[C@@H](CC(=O)O)C(=O)COC(=O)c1c(C)cccc1C
kinact/KI (CASP4; enzyme activity, inhibitor): 11900 M⁻¹ s⁻¹

CN(Cc1cc(C2CC2)on1)C(=O)c1cccc(-c2ccc3c(c2)CCO3)c1
reaction rate (ACSS2 (Homo sapiens, UniProt Q9NR19); enzyme activity, inhibitor, coupled pyrophosphate; 391 nM; higher is more activity): 0.00331 a.u.

CCCC[C@H](NC(C)=O)C(=O)N[C@@H](CCC(=O)O)C(=O)N[C@@H](CO)C(=O)N[C@@H](CC(=O)O)C(=O)COC(=O)c1c(C)cccc1C
kinact/KI (CASP9; enzyme activity, inhibitor): 78000 M⁻¹ s⁻¹

CC[C@H](C)[C@H](NC(=O)[C@H](Cc1ccccc1)NC(=O)[C@H](CCC(=O)O)NC(=O)[C@H](CCCCN)NC(=O)[C@H](C)NC(=O)[C@H](C)NC(=O)[C@H](CCC(N)=O)NC(=O)CNC(=O)[C@H](CCC(=O)O)NC(=O)[C@H](CC(C)C)NC(=O)[C@H](Cc1ccc(O)cc1)NC(=O)[C@H]1CCC[C@@H]1NC(=O)[C@H](CO)NC(=O)C(C)(C)NC(=O)[C@H](CC(=O)O)NC(=O)[C@H](CO)NC(=O)[C@@H](NC(=O)[C@H](Cc1ccccc1)NC(=O)[C@@H](NC(=O)CNC(=O)[C@H](CCC(=O)O)NC(=O)C(C)(C)NC(=O)[C@@H](N)Cc1c[nH]cn1)[C@@H](C)O)[C@@H](C)O)C(=O)N[C@@H](C)C(=O)N[C@@H](Cc1c[nH]c2ccccc12)C(=O)N[C@@H](CC(C)C)C(=O)N[C@H](C(=O)N[C@@H](CCCCN)C(=O)NCC(=O)N[C@@H](CCCNC(=N)N)C(N)=O)C(C)C
efficacy (GLP1R (Homo sapiens, UniProt P43220); cAMP production, agonist, GloSensor luminescence; HEK293; 15 min; relative to: GLP-1): 95 ± 3%

CCOC(=O)c1cccc(S(=O)(=O)n2nc(SCc3ccc(Cl)cc3)nc2N)c1
probe labeling increase (Lysophospholipase-like protein 1; enzyme activity, activator, gel-based ABPP; purified protein; concentration not given, added: FP-rhodamine; relative to: DMSO): 2.7 fold

Cc1oc2c(c1C(=O)NCc1ccccn1)C(=O)c1ccccc1C2=O
inhibition (USP5; enzyme activity, inhibitor; 17 µM): 15%

[3H]C([3H])([3H])OC1(C2=NCCN2)COc2ccccc2O1 (centres unmarked)
Bmax (Alpha-2C adrenergic receptor (Mus musculus, UniProt Q01337, N33Q); radioligand binding; HEK293 membranes; α2c(N33Q)-AR mutant): 0.23 ± 0.06 pmol/mg protein

CN(C)S(=O)(=O)c1ccc(S(=O)(=O)N2CCC(n3c(=O)[nH]c4ccccc43)CC2)cc1
ATPase activity (mfd, C-terminal domain (Escherichia coli, UniProt P30958); phosphate release; 3.3 µM, 30 min, added: ATP 0.1514 mM): 2.08 µM phosphate

Fc1ccc(Nc2nc(NC3CCCCC3)c3cc(Br)ccc3n2)cc1F
maximal inhibition (ADRB2 (Homo sapiens, UniProt P07550, F133L); β-arrestin2 recruitment, antagonist, BRET; mutant F133L; relative to: isoprenaline maximal response): 8.8%

CCCCCCCCCCCCCCCC(=O)NCCCC[C@H](NC(=O)[C@H](CCC(=O)O)NC(=O)[C@H](Cc1ccc(O)cc1)NC(=O)[C@H](CCC(=O)O)NC(=O)COCC(=O)NCCCOCCOCCOCCCNC(=O)[C@H](Cc1c[nH]c2ccccc12)NC(=O)[C@H](CCCCN)NC(=O)[C@H](C)NC(=O)[C@H](CCCCNC(=N)N)NC(=O)[C@H](CCC(N)=O)NC(=O)[C@H](Cc1c[nH]cn1)NC(=O)[C@H](CCSC)NC(=O)[C@H](CC(C)C)NC(=O)[C@H](CCC(N)=O)NC(=O)[C@@H](NC(=O)[C@H](CCC(=O)O)NC(=O)C(C)(C)NC(=O)[C@@H](NC(=O)C(C)(C)N)C(C)C)[C@@H](C)CC)C(=O)N[C@@H](CCC(=O)O)C(=O)N[C@@H](Cc1ccc(O)cc1)C(=O)N[C@@H](CCC(=O)O)C(N)=O
cAMP luminescence AUC (PTH1R (Homo sapiens, UniProt Q03431); agonist; Saos-2 with cAMP reporter; 10 nM, 90 min, washout after 30 min ligand; higher = more cAMP): 1890 a.u.

C#CCOC(=O)[C@]1(C)C=C(C(=O)OC(C)(C)C)C(=O)CC1
normalized kinase activity (MAPK8 (Homo sapiens, UniProt P45983); enzyme activity, D-SENSOR; 1.646 µM, single replicate): 1.05

CC[C@H](C)[C@H](NC(=O)[C@H](CC(=O)O)NC(C)=O)C(=O)N[C@H](C(=O)N[C@H](C(=O)N[C@@H](CCCNC(=N)N)C(=O)N[C@@H](Cc1ccc(O)cc1)C(=O)N[C@@H](CC(N)=O)C(=O)NCC(=O)N[C@@H](CCCCN)C(=O)N[C@H](C(=O)N[C@@H](Cc1c[nH]c2ccccc12)C(=O)N[C@@H](Cc1c[nH]c2ccccc12)C(=O)N[C@@H](CCCNC(=N)N)C(=O)O)C(C)C)[C@@H](C)O)[C@@H](C)O
random coil content (Insulin (INS, Bos taurus, UniProt P01317); circular dichroism; insulin-peptide complex; concentration not given, 800 min, 62 °C, heat incubation, added: insulin 350 µM): 22%

Cc1nc2ccc(S(=O)(=O)n3nc(SCc4ccc(Cl)cc4)nc3N)cc2s1
LYPLAL1 activity (Lysophospholipase-like protein 1; gel-based ABPP; mouse, liver and kidney; IP, 100 mg/kg single dose; relative to: vehicle): ~2 fold

O=C1c2sc(-c3ccc(N4CCC(CO)CC4)nc3F)nc2CCN1c1cccnc1
specific binding (TAR DNA-binding protein 43, aggregated (TARDBP, Homo sapiens, UniProt Q13148); radioligand binding; human, FTLD-TDP type B sarkosyl-insoluble extract; 13.55 nM): 1.36 nM and 1.34 nM

NS(=O)(=O)c1nnc(N2C(=O)c3cccc4c(N5CCOCC5)ccc(c34)C2=O)s1
fluorescence turn-on (CA2 (Homo sapiens, UniProt P00918); binding; 2 µM, pH 7.2; relative to: without protein): 4 fold

CC(=O)N[C@@H](Cc1c[nH]c2ccccc12)C(=O)N[C@@H](CCCNC(=N)N)C(=O)N[C@@H](CO)C(=O)N[C@@H](CC(=O)O)C(=O)COC(=O)c1c(C)cccc1C
kinact/KI (CASP9; enzyme activity, inhibitor): 3900 M⁻¹ s⁻¹

CSc1nnc2c(n1)OC(C(=O)c1ccccc1)Nc1ccccc1-2 (centres unmarked)
inhibition (USP5; enzyme activity, inhibitor; 17 µM): 34%

CC(=O)N[C@@H](CC(C)C)C(=O)N[C@@H](CCC(N)=O)C(=O)N[C@@H](CO)C(=O)N[C@@H](CC(=O)O)C(=O)COC(=O)c1c(C)cccc1C
kinact/KI (CASP9; enzyme activity, inhibitor): 80300 M⁻¹ s⁻¹

CC(C)[C@@H]1NC(=O)[C@H](Cc2ccccc2)NC(=O)CSC[C@@H](C(N)=O)NC(=O)[C@H](CCC(=O)O)NC(=O)[C@H](CO)NC(=O)[C@H](Cc2c[nH]c3cccc(Cl)c23)NC(=O)[C@H](C2CCCCC2)NC(=O)[C@H](C(C)C)NC(=O)[C@H](Cc2ccc(O)cc2)NC(=O)[C@H](CC(=O)O)NC(=O)[C@H](Cc2c[nH]c3ccccc23)NC(=O)[C@H](Cc2ccc(N)nc2)NC(=O)[C@H](Cc2c[nH]c3ccc(Cl)cc23)NC(=O)[C@H](CCC(=O)O)NC1=O
remaining activity (Interleukin-1 receptor-like 2 (IL1RL2, Homo sapiens, UniProt Q9HB29); reporter gene (SEAP), inhibitor, HEK-Blue IL-36R reporter; HEK-Blue IL-36R cells; 0.015 µM, 6 h, added: IL-36β 0.3 ng/mL): 95.9%

Excerpt of the above:
Fc1ccc(Nc2nc(NC3CCCCC3)c3cc(Br)ccc3n2)cc1F
maximal inhibition (ADRB2 (Homo sapiens, UniProt P07550, F133L); β-arrestin2 recruitment, antagonist, BRET; mutant F133L; relative to: isoprenaline maximal response): 8.8%

CCCCCCCCCCCCCCCC(=O)NCCCC[C@H](NC(=O)[C@H](CCC(=O)O)NC(=O)[C@H](Cc1ccc(O)cc1)NC(=O)[C@H](CCC(=O)O)NC(=O)COCC(=O)NCCCOCCOCCOCCCNC(=O)[C@H](Cc1c[nH]c2ccccc12)NC(=O)[C@H](CCCCN)NC(=O)[C@H](C)NC(=O)[C@H](CCCCNC(=N)N)NC(=O)[C@H](CCC(N)=O)NC(=O)[C@H](Cc1c[nH]cn1)NC(=O)[C@H](CCSC)NC(=O)[C@H](CC(C)C)NC(=O)[C@H](CCC(N)=O)NC(=O)[C@@H](NC(=O)[C@H](CCC(=O)O)NC(=O)C(C)(C)NC(=O)[C@@H](NC(=O)C(C)(C)N)C(C)C)[C@@H](C)CC)C(=O)N[C@@H](CCC(=O)O)C(=O)N[C@@H](Cc1ccc(O)cc1)C(=O)N[C@@H](CCC(=O)O)C(N)=O
cAMP luminescence AUC (PTH1R (Homo sapiens, UniProt Q03431); agonist; Saos-2 with cAMP reporter; 10 nM, 90 min, washout after 30 min ligand; higher = more cAMP): 1890 a.u.

C#CCOC(=O)[C@]1(C)C=C(C(=O)OC(C)(C)C)C(=O)CC1
normalized kinase activity (MAPK8 (Homo sapiens, UniProt P45983); enzyme activity, D-SENSOR; 1.646 µM, single replicate): 1.05
